Published values from different studies.
Each line is one published result; not all experiments were run side by side. ± gives the spread as reported.
Organism: Plasmodium falciparum

O=C(NC1CC1)c1ccc(N2CCOc3ccc(Cl)cc32)s1 — EC50 (parasite growth, SYBR Green; 3D7 DHODH E182D; 72 h): 3.87 ± 0.38 µM
CC1(C)N=C(N)N=C(N)N1c1ccc(Cl)cc1 — resistance index (growth, [3H]-hypoxanthine uptake; FCR3; 48 h; relative to: FCR3 IC50 over 3D7 IC50): 156
C[C@@H]1CN(c2ccnc3ccc(Sc4ccc(Oc5ccccc5)cc4)cc23)C[C@H](C)N1.Cl — EC50 ratio (parasite growth, SYBR Green; 72 h; relative to: 3D7-E182D over 3D7): 1.1
CN1CCC(=C2c3ccccc3CC(=O)c3sccc32)CC1 — IC50 (7G8): 10 µM
CC(C)C[C@H](NC(=O)[C@H](Cc1c[nH]c2ccccc12)NC(=O)CN1CCOCC1)C(=O)N[C@H](/C=C/S(C)(=O)=O)Cc1c[nH]c2ccccc12 — EC50 (SYBR Green; Dd2; 72 h): 0.022 ± 0.0084 µM
C=CCc1ccccc1OCC(O)CNC(C)C (stereo not drawn) — IC50 (HB3): 12.6 µM
CCN(CC)CCCC(C)Nc1ccnc2cc(Cl)ccc12 (stereo not drawn) — resistance index (relative to: IC50 Dd2 over IC50 3D7): 13
CC(c1ccc(Cl)c(Cl)c1)c1nn2c(-c3ccccc3F)nnc2s1 (stereo not drawn) — EC50 (parasite growth, SYBR Green; 3D7 wild type; 72 h): 0.0502 ± 0.0052 µM
Cn1cc(-c2ccc3ccn(CC(=O)Nc4ccccc4Cl)c3c2)cn1 — EC50 fold shift (Dd2 PfATP4 G358S; 72 h; relative to: mutant over parental): 3 fold
CCC(=O)N1CCN(C(=O)c2ccccc2)CC1 — IC50 (GB4): 3.16 µM
Cc1[nH]c2ccc(-c3ccccc3)cc2c(=O)c1Br — EC50 (parasite growth, SYBR Green; 3D7 DHODH E182D; 72 h): 0.558 ± 0.12 µM
c1cc([C@H]2CC[C@]3(CC2)OO[C@]2(O3)C3CC4CC(C3)CC2C4)ccc1OCCN1CCOCC1 — lag phase duration (human patients, malaria; oral, 1200 mg): 6 h
OC(CN1CCC(Cc2ccc(F)cc2)CC1)c1ccc(Cl)cc1 (stereo not drawn) — IC50 (D10): 2.51 µM
O=C(c1ccc(Cl)cc1)N1CCCC(C(=O)N(Cc2nnc(-c3ccccc3Cl)o2)C2CC2)C1 (stereo not drawn) — EC50 (parasite growth; Dd2): 0.14 ± 0.018 µM
C[C@H]1[C@@H](O)O[C@@H]2O[C@@]3(C)CC[C@H]4[C@H](C)CC[C@@H]1[C@@]24OO3 — parasite survival (ring-stage survival; 6591; 700 nM, 6 h): 0.66%
CN(Cc1ccco1)c1ncnc2ccc(-c3ccoc3)cc12 — merozoite invasion (FVO, purified merozoites, erythrocytes; 25 µM): 95%
COC(=O)C1=CNC=C(C(=O)OC)C1c1ccc(Cl)c([N+](=O)[O-])c1 — EC50 (parasite growth, SYBR Green; 3D7 wild type; 72 h): 0.386 ± 0.089 µM
Cc1cc(Nc2ccc(S(F)(F)(F)(F)F)cc2)n2nc(C(C)(F)F)nc2n1 — EC50 (Dd2 β5 S27F resistant): 0.0068 ± 0.0014 µM
C[C@@H]1CC[C@H]2[C@@H](C)C(=O)O[C@@H]3O[C@@]4(C)CC[C@@H]1[C@]32OO4 — IC50 (D10): 0.015 µM
Cc1nnc(-c2ccc3ccn(CC(=O)Nc4ccccc4Cl)c3c2)o1 — EC50 shift (parasite growth; Dd2 PfATP4 F156L; relative to: parental Dd2): ~2 fold
Cc1cc(Nc2ccc3c(c2)CCC3)n2ncnc2n1 — EC50 (parasite growth, SYBR Green; 3D7 wild type; 72 h): 2.42 ± 0.69 µM
O=C(CCCN1CC=C(n2c(=O)[nH]c3ccccc32)CC1)c1ccc(F)cc1 — IC50 (GB4): 6.31 µM
Cl.Oc1cccc2c1[nH]c1c(C3=CC4(O)CC/C=C\CCCCN5CCC3C3(CC6/C=C\CCCCN6C43)C5)nccc12 (single isomer, unassigned; (+)) — selectivity index (W2, chloroquine-resistant; relative to: Vero IC50 over W2 IC50): 18
Nc1nc(N)c2nc(-c3ccccc3)c(N)nc2n1 — IC50 (D10): 2.51 µM
CCn1c(-c2ccccc2)cc2nnc3ccccc3c21 — EC50 (parasite growth, SYBR Green; 3D7 wild type; 72 h): 0.293 ± 0.046 µM
N=C(N)c1ccc(OCCCCCOc2ccc(C(=N)N)cc2)cc1 — IC50 (3D7): 0.1 µM
CN(C)CCCN1c2ccccc2C(C)(C)c2ccccc21 — merozoite invasion (FVO, purified merozoites, erythrocytes; 50 µM): 23%

A few entries again:
O=C(CCCN1CC=C(n2c(=O)[nH]c3ccccc32)CC1)c1ccc(F)cc1 — IC50 (GB4): 6.31 µM
Cl.Oc1cccc2c1[nH]c1c(C3=CC4(O)CC/C=C\CCCCN5CCC3C3(CC6/C=C\CCCCN6C43)C5)nccc12 (single isomer, unassigned; (+)) — selectivity index (W2, chloroquine-resistant; relative to: Vero IC50 over W2 IC50): 18
